Published values gathered from unrelated publications.
Protocols differ between the studies behind these lines. Several values in a cell are separate wells, animals, samples, runs or records.
Sequence of UniProt P06873 (whole entry, looked up): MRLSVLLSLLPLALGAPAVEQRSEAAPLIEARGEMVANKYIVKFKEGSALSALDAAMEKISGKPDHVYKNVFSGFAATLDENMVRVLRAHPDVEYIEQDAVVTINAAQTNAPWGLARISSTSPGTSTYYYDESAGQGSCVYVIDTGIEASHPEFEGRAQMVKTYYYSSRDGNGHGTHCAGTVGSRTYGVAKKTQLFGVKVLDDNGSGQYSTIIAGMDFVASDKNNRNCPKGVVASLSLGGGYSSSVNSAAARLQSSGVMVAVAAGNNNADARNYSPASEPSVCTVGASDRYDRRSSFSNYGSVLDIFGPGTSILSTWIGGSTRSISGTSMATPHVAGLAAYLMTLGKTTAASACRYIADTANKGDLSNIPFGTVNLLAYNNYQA
Sequence of UniProt P41247 (whole entry, looked up): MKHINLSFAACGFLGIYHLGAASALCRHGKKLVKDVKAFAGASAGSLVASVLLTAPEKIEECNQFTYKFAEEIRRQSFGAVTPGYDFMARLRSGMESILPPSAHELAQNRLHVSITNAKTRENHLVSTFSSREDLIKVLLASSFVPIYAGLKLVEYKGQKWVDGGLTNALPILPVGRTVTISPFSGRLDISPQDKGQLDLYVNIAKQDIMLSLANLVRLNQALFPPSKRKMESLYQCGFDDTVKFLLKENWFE
Sequence of UniProt P30411 (whole entry, looked up): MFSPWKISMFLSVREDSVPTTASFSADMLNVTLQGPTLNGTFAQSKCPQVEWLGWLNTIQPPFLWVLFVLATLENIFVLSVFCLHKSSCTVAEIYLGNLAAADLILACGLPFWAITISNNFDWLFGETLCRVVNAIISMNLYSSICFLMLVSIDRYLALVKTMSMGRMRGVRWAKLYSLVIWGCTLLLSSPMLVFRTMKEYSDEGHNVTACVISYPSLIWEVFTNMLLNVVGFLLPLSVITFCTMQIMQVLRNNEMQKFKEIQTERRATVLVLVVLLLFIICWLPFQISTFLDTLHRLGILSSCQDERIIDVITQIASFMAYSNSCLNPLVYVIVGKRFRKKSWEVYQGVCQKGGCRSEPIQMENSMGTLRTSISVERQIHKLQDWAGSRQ
Sequence of UniProt Q13011 (whole entry, looked up): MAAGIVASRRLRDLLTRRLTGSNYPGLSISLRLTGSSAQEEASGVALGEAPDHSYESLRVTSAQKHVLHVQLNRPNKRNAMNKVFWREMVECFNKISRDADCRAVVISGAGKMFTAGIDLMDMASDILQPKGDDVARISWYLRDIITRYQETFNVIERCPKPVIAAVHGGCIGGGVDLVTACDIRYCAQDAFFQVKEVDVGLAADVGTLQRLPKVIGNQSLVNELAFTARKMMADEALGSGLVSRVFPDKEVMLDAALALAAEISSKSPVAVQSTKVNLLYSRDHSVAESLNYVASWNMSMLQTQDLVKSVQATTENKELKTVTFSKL

Compound	tested on	assay	system	setting	how to read	endpoint	result
COc1cc2c(Oc3ccc4[nH]c(C)cc4c3F)ccnc2cc1OCC1(N)CC1			paediatric recurrent refractory sarcoma	8 mg		grade 3 Hyperuricemia	0%
Nc1ncnc2c([C@@H]3N[C@H](CO)[C@@H](O)[C@H]3O)c[nH]c12	HeLa			0.8 µM		cell number	4370 and 5520
CO[C@H]1C[C@@H]2CC[C@@H](C)[C@@](O)(O2)C(=O)C(=O)N2CCCC[C@H]2C(=O)O[C@H]([C@H](C)C[C@@H]2CC[C@@H](OC(=O)NCCOCCOCCOCCOCCOCCOCCOCCOCCC(=O)N3CCc4cc(Cn5nc(-c6ccc7oc(N)nc7c6)c6c(N)ncnc65)ccc4C3)[C@H](OC)C2)C[C@@H](O)[C@H](C)/C=C(\C)[C@@H](O)[C@@H](OC)C(=O)[C@H](C)C[C@H](C)/C=C/C=C/C=C/1C			patients with advanced solid tumours	intravenous, 10 mg weekly, any grade		fatigue incidence	62.5%
O=c1ccc2ccccc2o1	NHEK	cell count		concentration not given, 1 h, pH2AX and pH3 panel		chance response	0.01%
CC[C@H](C)[C@H](NC(=O)[C@H](Cc1ccccc1)NC(=O)[C@H](CCC(=O)O)NC(=O)[C@H](CCCNC(=N)N)NC(=O)[C@H](C)NC(=O)[C@H](C)NC(=O)[C@H](CCC(N)=O)NC(=O)[C@H](CCC(=O)O)NC(=O)[C@H](CCC(=O)O)NC(=O)[C@H](CC(C)C)NC(=O)[C@H](Cc1ccc(O)cc1)NC(=O)[C@H](CO)NC(=O)[C@H](CO)NC(=O)[C@@H](NC(=O)[C@H](CC(=O)O)NC(=O)[C@H](CO)NC(=O)[C@@H](NC(=O)[C@H](Cc1ccccc1)NC(=O)[C@@H](NC(=O)CNC(=O)[C@H](CCC(=O)O)NC(=O)[C@H](C)NC(=O)CCc1c[nH]cn1)[C@@H](C)O)[C@@H](C)O)C(C)C)C(=O)N[C@@H](C)C(=O)N[C@@H](Cc1c[nH]c2ccccc12)C(=O)N[C@@H](CC(C)C)C(=O)N[C@H](C(=O)N[C@@H](CCCNC(=N)N)C(=O)NCC(=O)N[C@@H](CCCNC(=N)N)C(=O)N[C@@H](CCCCNC(=O)COCCOCCNC(=O)COCCOCCNC(=O)CC[C@H](NC(=O)CCCCCCCCCCCCCCCCC(=O)O)C(=O)O)C(=O)NCC(=O)NCC(=O)N[C@@H](CO)C(=O)N[C@@H](CCCCNc1c(NCCCCCN(O)C(=O)CCC(=O)NCCCCCN(O)C(=O)CCC(=O)NCCCCCN(O)C(C)=O)c(=O)c1=O)C(=O)O)C(C)C [zirconium-89 labelled]			rat, duodenum	iv, 3 nmol/kg, 4 h, ex vivo		tissue uptake	0.29 %ID/g
CCCC[C@H](NC(C)=O)C(=O)N[C@@H](CO)C(=O)N[C@H](C(=O)N1CCC[C@H]1C(=O)N[C@@H](C)C(=O)N[C@@H](CCCNC(=N)N)C(=O)N[C@@H](CCCNC(=N)N)C(=O)N[C@@H](CCCNC(=N)N)C(=O)N[C@@H](CC(C)C)C(=O)N[C@@H](CCCC)C(=O)N[C@@H](CCCNC(=N)N)C(=O)N[C@@H](CC(=O)O)C(=O)N[C@@H](Cc1ccccc1)C(=O)N[C@@H](CCCCN)C(=O)N[C@@H](CCCNC(=N)N)C(=O)N[C@@H](CC(C)C)C(=O)N[C@@H](CCC(N)=O)C(N)=O)[C@@H](C)O	Proteinase K (PROK, Engyodontium album, UniProt P06873)	proteolytic stability, LC-MS		25 µM, 20.5 min, pH 7.4		remaining intact peptide	41.7%
Cc1cc(C(=O)NC(C)(C)COc2cccc3c2C(N)=NS(=O)(=O)N3)cc(C)n1	Salmonella typhimurium	Ames test, initial	TA100	500 µg/plate, added: rat liver S9	baseline: solvent control	revertant ratio	1.1
COc1cc(Nc2ncc(F)c(Nc3ccc4c(n3)NC(=O)C(C)(C)O4)n2)cc(OC)c1OC	BDKRB2 (Homo sapiens, UniProt P30411)					IC50	> 10 µM
COc1cccc(-c2n[nH]c(SCc3ccccn3)n2)c1OC	Salmonella typhimurium	Ames test, preincubation	TA100	0.25 mg/plate, with rat liver S9		revertant colonies per plate	141
C[C@H]1CN(c2n[nH]c3nc(N[C@H]4CC[C@H](NS(=O)(=O)CCC(F)(F)F)CC4)ncc23)CCO1	Delta(3,5)-Delta(2,4)-dienoyl-CoA isomerase, mitochondrial (Homo sapiens, UniProt Q13011)	Kinobeads competition, item: ECH1		0.8 µM, unit not given	baseline: vehicle	remaining binding	1.1
OCc1ncc2n1-c1ccc(Cl)cc1C(c1ccccc1F)=NC2	CYP3A4 (human)		human, plasma	oral, 2 mg midazolam, probe alone Day -7	baseline: 1-hydroxymidazolam over midazolam	metabolite to parent Cmax ratio	4.56
CC(=O)N1CCC(C(=O)N2CCN3C(=O)c4cc(-c5ccccc5)ccc4NC(=O)C3C2)CC1 (stereo not shown)	Salmonella typhimurium		TA1535	50 µg/plate		revertants per plate	12.5
O=C(c1ccc(Cl)cc1)N1CCN2C(=O)N(OC(=O)N3CCOc4ccccc43)C(=O)C2C1 (stereo not shown)	Patatin-like phospholipase domain-containing protein 4 (PNPLA4, Homo sapiens, UniProt P41247)	enzyme activity, inhibitor, MS-based ABPP	SW-620 in situ	10 µM, 2 h, 37 °C	baseline: compound over DMSO, lower = stronger inhibition	median ratio	0.95

Repeated from above:
Compound	tested on	assay	system	setting	how to read	endpoint	result
Nc1ncnc2c([C@@H]3N[C@H](CO)[C@@H](O)[C@H]3O)c[nH]c12	HeLa			0.8 µM		cell number	4370 and 5520
